Experimental data of several laboratories.
Compare with care: the assays were run in different laboratories.
Organism: Pseudomonas aeruginosa

Molecule | test | system | setting | MIC
CN[C@H](CC(C)C)C(=O)N[C@H]1C(=O)N[C@@H](CC(N)=O)C(=O)N[C@H]2C(=O)N[C@H]3C(=O)N[C@H](C(=O)N[C@H](C(=O)NCC(N)=O)c4cc(O)cc(O)c4-c4cc3ccc4O)[C@H](O)c3ccc(c(Cl)c3)Oc3cc2cc(c3O[C@@H]2O[C@H](CO)[C@@H](O)[C@H](O)[C@H]2O[C@H]2C[C@](C)(NCc3ccc(OCc4cn(CC(=O)N[C@H](C(=O)N[C@@H](CCN)C(=O)N[C@H]5CCNC(=O)[C@H]([C@@H](C)O)NC(=O)[C@H](CCN)NC(=O)[C@H](CCN)NC(=O)[C@H](CC(C)C)NC(=O)[C@@H](CC(C)C)NC(=O)[C@H](CCN)NC5=O)[C@@H](C)O)nn4)c(OC)c3)[C@H](O)[C@H](C)O2)Oc2ccc(cc2Cl)[C@H]1O | broth microdilution | ATCC 10145, cation-adjusted Mueller-Hinton broth | 18 to 20 h, 37 °C, 0.002% polysorbate 80 | 32 µg/mL
COc1ccc(O)c(/C=N/[C@@H]2CCCC[C@@H]2/N=C/c2c(O)ccc3ccc(OC)cc23)c1 | microbial growth, broth dilution |  |  | > 40 µM
COc1cc(C(=O)O)ccc1NC(=O)c1ccc(NC(=O)c2ccc(NC(=O)[C@H](Cc3c[nH]nn3)NC(=O)c3ccc(NC(=O)/C(C)=C/c4ccc(O)cc4)cc3)cc2)cc1 | broth microdilution | ciprofloxacin-resistant |  | 32 µg/mL
COc1ccc2ccc(O)c(/C=N/[C@H]3CCCC[C@H]3/N=C/c3cc(C)ccc3O)c2c1 | microbial growth, broth dilution |  |  | > 40 µM
CC[C@H]1OC(=O)[C@H](C)[C@@H](OC(=O)Cc2ccc(C(F)(F)F)cc2)[C@H](C)[C@@H](O[C@@H]2O[C@H](C)C[C@H](N(C)C)[C@H]2O)[C@](C)(OC)C[C@@H](C)C(=O)[C@H](C)[C@@H](O)[C@]1(C)O | microbial growth | ATCC27853 |  | > 32 µg/mL
C/C(=C\c1ccc(O)cc1)C(=O)Nc1ccc(C(=O)N[C@@H](Cc2c[nH]nn2)C(=O)Nc2ccc(C(=O)Nc3ccc(C(=O)Nc4ccc(C(=O)O)c(O)c4)c(O)c3)cc2)cc1 | broth microdilution | ciprofloxacin-sensitive |  | 8 µg/mL
CCCCCCCC(=O)Oc1c(C)c(OC)c2c(c1C)OC(=O)[C@@H](CCCCCC)[C@]2(O)/C=C/c1ccccc1 (racemic) | microbial growth, broth dilution | ATCC27853 |  | 5000 µg/mL
C/C(=C\c1ccc(O)cc1)C(=O)Nc1ccc(C(=O)N[C@@H](Cc2c[nH]nn2)C(=O)Nc2ccc(C(=O)Nc3ccc(C(=O)Nc4ccc(C(=O)O)cc4)c(O)c3)cc2)cc1 | broth microdilution | ciprofloxacin-sensitive |  | 32 µg/mL
CC1(C)[C@H](NC(=O)/C(=N\OCC(=O)N2CCC(C(=O)O)CC2)c2csc(N)n2)C(=O)N1OS(=O)(=O)O | agar dilution | ATCC 27853 |  | > 64 µg/mL
CC[C@H](C)[C@H](NC(=O)[C@H](CCC(N)=O)NC(=O)[C@H](Cc1ccccc1)NC(=O)[C@H](CC(N)=O)NC(=O)[C@H](CCCCN)NC(=O)[C@H](CC(C)C)NC(=O)[C@H](CCCNC(=N)N)NC(=O)[C@H](CCCCN)NC(=O)[C@H](CCCCN)NC(=O)[C@@H](NC(=O)[C@H](CO)NC(=O)[C@H](CCCCN)NC(=O)CNC(=O)[C@H](CC(C)C)NC(=O)[C@H](CCCCN)NC(=O)[C@H](CCCCN)NC(=O)[C@H](CC(C)C)NC(=O)[C@H](CCCCN)NC(=O)[C@H](CCCCN)NC(=O)[C@H](CCCNC(=N)N)NC(=O)[C@H](CC(C)C)NC(=O)CNC(=O)[C@@H](N)CCCNC(=N)N)[C@@H](C)CC)C(=O)NCC(=O)N[C@@H](Cc1ccccc1)C(=O)N[C@@H](CO)C(=O)N[C@H](C(=O)N1CCC[C@H]1C(=O)N[C@@H](Cc1ccccc1)C(=O)N[C@@H](C)C(=O)NCC(=O)O)C(C)C | broth microdilution | PAO1, cation-adjusted Mueller-Hinton broth | 16 h, 37 °C | 8 µg/mL
CN[C@H](CC(C)C)C(=O)N[C@H]1C(=O)N[C@@H](CC(N)=O)C(=O)N[C@H]2C(=O)N[C@H]3C(=O)N[C@H](C(=O)N[C@H](C(=O)O)c4cc(O)cc(O)c4-c4cc3ccc4O)[C@H](O)c3ccc(c(Cl)c3)Oc3cc2cc(c3O[C@@H]2O[C@H](CO)[C@@H](O)[C@H](O)[C@H]2O[C@H]2C[C@](C)(NCc3ccc(OCc4cn(CCCCC(=O)N[C@H](C(=O)N[C@@H](CCN)C(=O)N[C@H]5CCNC(=O)[C@H]([C@@H](C)O)NC(=O)[C@H](CCN)NC(=O)[C@H](CCN)NC(=O)[C@H](CC(C)C)NC(=O)[C@@H](CC(C)C)NC(=O)[C@H](CCN)NC5=O)[C@@H](C)O)nn4)c(OC)c3)[C@H](O)[C@H](C)O2)Oc2ccc(cc2Cl)[C@H]1O | broth microdilution | ATCC 10145, cation-adjusted Mueller-Hinton broth | 18 to 20 h, 37 °C, 0.002% polysorbate 80 | 64 µg/mL
CC1(C)[C@H](NC(=O)/C(=N\OC2(C(=O)O)CCCC2)c2csc(N)n2)C(=O)N1OS(=O)(=O)O | agar dilution | PAO1 |  | 2 µg/mL
CCCCCCCCCCCC[N+](C)(C)CCCCOc1cc(OCCCC[N+](C)(C)CCCCCCCCCCCC)cc(OCCCC[N+](C)(C)CCCCCCCCCCCC)c1.[Br-].[Br-].[Br-] |  | PAO1 |  | 16 µM
CC[C@H](C)[C@@H]1NC(=O)[C@H](CCC(=O)O)NC(=O)[C@@H]2CSSC[C@@H]3NC(=O)[C@H](Cc4ccc(O)cc4)NC(=O)[C@@H](NC(=O)[C@@H](NC(=O)[C@H](C)N)[C@@H](C)O)CSSC[C@@H](C(=O)N[C@@H](CCCNC(=N)N)C(=O)O)NC(=O)[C@H](CSSC[C@H](NC(=O)[C@H](CCCNC(=N)N)NC(=O)CNC(=O)[C@H]([C@@H](C)O)NC(=O)[C@H](CCCNC(=N)N)NC3=O)C(=O)N[C@@H](C)C(=O)N[C@@H]([C@@H](C)O)C(=O)N[C@@H](CCCNC(=N)N)C(=O)N[C@@H](CCC(=O)O)C(=O)N[C@@H](CO)C(=O)N[C@@H](CC(C)C)C(=O)N[C@@H](CO)C(=O)NCC(=O)N[C@@H](C(C)C)C(=O)N2)NC(=O)[C@H](CC(C)C)NC(=O)[C@H](CCCNC(=N)N)NC(=O)[C@H](Cc2ccc(O)cc2)NC(=O)[C@H](CC(C)C)NC(=O)[C@H](CCCNC(=N)N)NC(=O)CNC(=O)[C@H](CO)NC1=O | broth turbidity | ATCC 27853 |  | 25 µM
CC1(C)[C@H](NC(=O)/C(=N\OCC(=O)N2CCC(C(=O)O)C2)c2nsc(N)n2)C(=O)N1OS(=O)(=O)O (stereo partly drawn) | agar dilution | PAO1 |  | > 64 µg/mL
polymyxin B | broth microdilution | PAO1 wild type |  | 2 µg/mL
CCCCCCCCn1cc[n+](CCCCOc2cc(OCCCC[n+]3ccn(CCCCCCCC)c3)cc(OCCCC[n+]3ccn(CCCCCCCC)c3)c2)c1.[Br-].[Br-].[Br-] |  | PAO1 |  | 4 µM
CC[C@H]1OC(=O)[C@H](C)[C@@H](OC(=O)Cc2c(F)cc([N+](=O)[O-])cc2F)[C@H](C)[C@@H](O[C@@H]2O[C@H](C)C[C@H](N(C)C)[C@H]2O)[C@](C)(OC)C[C@@H](C)C(=O)[C@H](C)[C@@H](O)[C@]1(C)O |  | DSM 50071 | together with: colistin sulfate at 0.5 x MIC | 16 µM
CCCCCCCC(=O)N[C@@H](CCN)C(=O)N[C@H](C(=O)N[C@@H](CCN)C(=O)N[C@H]1CCNC(=O)[C@H]([C@@H](C)O)NC(=O)[C@H](CCN)NC(=O)[C@H](CCN)NC(=O)[C@H](CC(C)C)NC(=O)[C@@H](Cc2ccccc2)NC(=O)[C@H](CCN)NC1=O)[C@@H](C)O |  | ATCC 27853 |  | 0.25 µg/mL
CC[C@H]1OC(=O)[C@H](C)C(=O)[C@H](C)[C@@H](O[C@@H]2O[C@H](C)C[C@H](N(C)C)[C@H]2O)[C@](C)(OC)C[C@@H](C)C(=O)[C@H](C)[C@H]2N(CCCCn3cnc(-c4cccnc4)c3)C(=O)O[C@]12C |  | PAO397, five efflux pumps deleted |  | > 32 µg/mL
COc1cc(C(=O)O)ccc1NC(=O)c1ccc(NC(=O)c2ccc(NC(=O)[C@H](Cc3c[nH]nn3)NC(=O)c3ccc(NC(=O)/C(C)=C/c4ccc(O)cc4)cc3)cc2)c(OC)c1O | broth microdilution | ciprofloxacin-sensitive |  | 8 µg/mL
CCCCCCCCCC[N+](C)(C)CCCCCCOc1cc(OCCCCCC[N+](C)(C)CCCCCCCCCC)cc(OCCCCCC[N+](C)(C)CCCCCCCCCC)c1.[Br-].[Br-].[Br-] |  | PAO1 |  | 4 µM
NC[C@H]1O[C@H](O[C@H]2[C@H](O)[C@@H](O[C@H]3O[C@H](CO)[C@@H](O)[C@H](N)[C@H]3O)[C@H](N)C[C@@H]2N)[C@H](N)C[C@@H]1O | broth microdilution | phenazine non-producing |  | 0.125 µg/mL
O=c1c(O)ccc(Br)cc1O | broth microdilution | ATCC 27853, CAMHB | 16 to 24 h, ≥80% growth inhibition | > 71.4 µM
